Earlier results that unrelated publications cite.
Several values in a cell are separate wells, animals, samples, runs or records.

The logP of COc1ccc2c3c1O[C@H]1[C@@H](O)CC[C@H]4[C@@H](C2)N(C)CC[C@@]341 is reported as 1.16.
With COC(=O)C(c1ccccc1)C1CCCCN1 (stereo not drawn) the fraction unbound was 0.12 (mouse).
For Cc1ncc2n1-c1ccc(Cl)cc1C(c1ccccc1F)=NC2, the Cmax ratio was 4.09 (human; together with: ketoconazole; baseline: with over without ketoconazole).
Cc1ncc2n1-c1ccc(Cl)cc1C(c1ccccc1F)=NC2 has a blood-to-plasma ratio of 0.57 (human; average of reported values).
c1ccc2c(c1)Cc1ccccc1-2 — result for “amount in tissue”: 2.65 ng/well and 2.9 ng/well and 2.6 ng/well (zebrafish embryos, whole embryo; 192.8 ng/well, 48 hpf, single exposure).
For CC(C)N(CCC(C(N)=O)(c1ccccc1)c1ccccn1)C(C)C (stereo not drawn), the free Cmax was 742 nM (human).
The LD50 of O=C(O)CCCO is reported as 1750 mg/kg (rat).
For C#CCN(C)[C@H](C)Cc1ccccc1, the fraction unbound was 0.045 (mouse).
With Cc1ncc2n1-c1ccc(Cl)cc1C(c1ccccc1F)=NC2 the oral bioavailability was 30 to 40% (human).
With CC(NC(C)(C)C)C(=O)c1cccc(Cl)c1 (stereo not drawn) the Cmax was 734 nM (plasma; concentration not given, total, literature data).
CC(C(=O)O)c1ccc(-c2ccccc2)c(F)c1 (stereo not drawn) has an oral bioavailability of 95% (human).
With NC(=O)c1ccc2c(c1O)[C@]13CCN(CC4CC4)[C@H](C2)[C@]1(O)CCC(=O)C3 the Tmax was 2 h (human; oral, 5 mg, day 1).
O=c1[nH]c2ccccc2n1CCCN1CCC(n2c(=O)[nH]c3cc(Cl)ccc32)CC1 gave a Cmax of 33 to 117000 nM (human, plasma; concentration not given, range of reported values).
CCCC(C(=O)c1ccc2c(c1)OCO2)N1CCCC1.Cl (racemic) gave a brain concentration of 863 ng/g (female Sprague-Dawley rat, brain; intraperitoneal, 3 mg/kg, 30 min).
The fraction unbound of CCCC(C)(COC(N)=O)COC(=O)NC(C)C (stereo not drawn) is reported as 0.31 (mouse).
The blood-to-plasma ratio of CC(C)N(CCC(C(N)=O)(c1ccccc1)c1ccccn1)C(C)C (stereo not drawn) is reported as 1.2 ¹⁶ (human, blood).
With O=C(O)[C@H](c1ccccc1)[C@H]1CCCCN1 the half-life was 8.6 h (human, CES1 wild type, plasma; oral, 10 mg methylphenidate, single dose, median).
The Cmax of Cc1ncc2n1-c1ccc(Cl)cc1C(c1ccccc1F)=NC2 is reported as 340 nM (plasma; concentration not given, total, steady state).
The Cmax of O=c1[nH]c2ccccc2n1C1CCN(CCCC(c2ccc(F)cc2)c2ccc(F)cc2)CC1 is reported as 8 nM (human, plasma; concentration not given, median of reported values).
For COc1ccc2c(c1)[C@]13CCCC[C@@H]1[C@H](C2)N(C)CC3, the plasma clearance was 14.8 mL/min/kg (human).
For O=c1[nH]c2ccccc2n1C1CCN(CCCC(c2ccc(F)cc2)c2ccc(F)cc2)CC1, the free Cmax was 8.7 nM (human).
Cc1ncc2n1-c1ccc(Cl)cc1C(c1ccccc1F)=NC2 has a clearance of 150 L/h (human).
COC(=O)[C@H](c1ccccc1)[C@H]1CCCCN1 has a half-life of 2.6 h (human, by CES1 genotype, plasma; oral, 10 mg methylphenidate, single dose, median).
For C=C1C[C@@H]2[C@H](CC[C@]3(C)C(=O)CC[C@@H]23)[C@@]2(C)C=CC(=O)C=C12, the unchanged fraction was < 1% (patients, urine; dose not given).

For quick reference, copied from above:
Cc1ncc2n1-c1ccc(Cl)cc1C(c1ccccc1F)=NC2 has a blood-to-plasma ratio of 0.57 (human; average of reported values).
For C#CCN(C)[C@H](C)Cc1ccccc1, the fraction unbound was 0.045 (mouse).
